Results gathered from unrelated publications.
Each numbered part is a random draw from the data of one study; scales do not carry over between parts. Positions count from the first letter of the parent shown.

Block 1 — method: RNA Bind-n-Seq; molecule type: RNA; medium: in vitro; tested at: 200 nM; setting: whole 134-nt RNA, ends assumed; with: 150 mM KCl; relative to: input library; direction: higher = stronger binding
Target: Ras GTPase-activating protein-binding protein 1, full length (G3BP1, Homo sapiens, UniProt Q13283)
Sequence of UniProt Q13283 (whole entry, looked up): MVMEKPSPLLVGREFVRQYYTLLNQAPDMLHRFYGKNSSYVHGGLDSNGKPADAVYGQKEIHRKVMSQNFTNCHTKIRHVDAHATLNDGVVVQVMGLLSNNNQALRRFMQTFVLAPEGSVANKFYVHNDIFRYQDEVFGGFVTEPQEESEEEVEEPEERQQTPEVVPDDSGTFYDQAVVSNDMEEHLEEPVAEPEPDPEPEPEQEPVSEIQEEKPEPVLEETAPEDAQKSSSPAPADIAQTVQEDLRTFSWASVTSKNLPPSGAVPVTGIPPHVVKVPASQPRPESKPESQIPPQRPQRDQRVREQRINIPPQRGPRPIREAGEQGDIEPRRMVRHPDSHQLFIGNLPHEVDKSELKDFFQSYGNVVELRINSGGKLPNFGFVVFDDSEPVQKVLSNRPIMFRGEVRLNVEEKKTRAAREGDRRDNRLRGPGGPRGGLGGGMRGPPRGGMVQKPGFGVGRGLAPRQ
Shared flanks, not repeated: GGGAGUUCUACAGUCCGACGAUC … UGGAAUUCUCGGGUGUCAAGG
| Sequence | log2 enrichment |
| --- | --- |
| CUCAAGUCCUGUGCUACACAUCGUAUGUACCGAAUCGGGGAGGGAGGGGAGGGGAAAGUAUUAUGUUACGCCGUUCGGAUCUGCACUUCC | 1.43 |
| GUCCUGUGCUACACAUCGUAUGUACCGAAUCGGGGUGGGGUUUUUGGGGUUUUUGGGGAAAGUAUUAUGUUACGCCGUUCGGAUCUGCAC | 0.378 |
| UCCCUGAAUCACCGACUGGAGGAGAGUUACCUACAAGAGCCUUCAUCCAGGAGCAUCCACACUGCAAUGAUAUAGGAAUGAGGUCUGAAC | 0.525 |
| CCUCAAGUCCUGUGCUACACAUCGUAUGUACCGAAUCGGGUGGGUGGGUGGGAAAGUAUUAUGUUACGCCGUUCGGAUCUGCACUUCCAG | 1.27 |
| UUGCGGCAGCCGCCCCCUUCUGCGCGGUCACGCCGAGCCAGCGCCUGGGCCUGGAACCGGGCCGUAGCCCCCCCAGUUUCGCCCACCACC | 0.396 |
| UCCCCCCUAUUGGAAGUAAAGGGGAACAUAGAACUGAAGAGACCUCUGAUUAAGGCCCCUUCCCAGCUGCCUCUCUCAGGAAGCAGACUC | -0.454 |
| CUCAAGUCCUGUGCUACACAUCGUAUGUACCGAAUCGGGAGGGGAGGGGAGGGAAAGUAUUAUGUUACGCCGUUCGGAUCUGCACUUCCA | 1.47 |
| CCUGUGCUACACAUCGUAUGUACCGAAUCGGGAAAAAAGGGAAAAAAGGGGAAAAAAGGGGAAAGUAUUAUGUUACGCCGUUCGGAUCUG | -0.367 |
| UAACUUUAGAGGAGGAUCUGAUGGAUAUGGCAGUGGACGUGGAUUUGGGGAUGGCUAUAAUGGGUAUGAAGGAGGACCUGGAGGUGGCAA | 0.173 |
| AAGUCCUGUGCUACACAUCGUAUGUACCGAAUCGGGUUUUGGUUUUGGGGUUUUGGGAAAGUAUUAUGUUACGCCGUUCGGAUCUGCACU | -0.626 |
| CUGUGCUACACAUCGUAUGUACCGAAUCGGGGUUUUUGGGGUUUUUUUGGGGAAAAAGGGGAAAGUAUUAUGUUACGCCGUUCGGAUCUG | -0.313 |
| GUCCUGUGCUACACAUCGUAUGUACCGAAUCGGGGUGGGGAAAAAAAGGGGAAAGGGGAAAGUAUUAUGUUACGCCGUUCGGAUCUGCAC | 0.539 |
| UCAAGUCCUGUGCUACACAUCGUAUGUACCGAAUCGGGGAAAGGAAAGGGAAAGGAAAGUAUUAUGUUACGCCGUUCGGAUCUGCACUUC | -0.625 |
| CUCAAGUCCUGUGCUACACAUCGUAUGUACCGAAUCGGGUUUGGGUGGGAGGGAAAGUAUUAUGUUACGCCGUUCGGAUCUGCACUUCCA | 1.32 |

Block 2 — method: RNA Bind-n-Seq; molecule type: RNA; medium: in vitro; tested at: 365 nM; relative to: no-protein control; direction: higher = stronger binding
Target: RNA binding protein fox-1 homolog 2, RRM domain, GST-SBP tag (RBFOX2, Homo sapiens, UniProt O43251-10, residues 100-194)
Setting: natural RNA segment, single round, ends assumed
Shared flanks, not repeated: GGGAGUUCUACAGUCCGACGAUC … UGGAAUUCUCGGGUGCCAA
Residues (chain): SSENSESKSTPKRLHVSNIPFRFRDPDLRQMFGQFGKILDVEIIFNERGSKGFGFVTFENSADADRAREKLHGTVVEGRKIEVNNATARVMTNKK
| Sequence | RBNS enrichment (R) |
| --- | --- |
| AGCACCACAGUGACCUAAGCGGCUCACUUCUGAGCCUCCUCUUCAGUUUCCUGGGGGGGGGGGGGUUCCUCCUGACUUCGUUCUGUUCUGUCUUCACUUCCUCUUCCAUC | 0.172 |
| UUGAUGUUAGCAAAUCAUGGAAUGUUCUAAGUCUCUGAGGGUUUACUGUGAAGUGUUGAGGACAGUGUUGAUGCCUAACUAGUUUUCUUAGAUGGAAACAGAGACAUUGA | 0.506 |
| UCACCGUCUCCGCACUGUGCCUGCGGGUCACCAGAGACAAGGCCUUCCUCAGGGACGUACAGGCUGUCUGCUGAGCAGCCCCCACUCUUCUUUAUGGCAACAGGAGGAGA | 0.344 |
| GUUGGUUUCCCGAAUAGUGUGCAUUCCAGCUGGAUAGUCUUAGGCAUGAUGAUAAUAAAAUCAAAAGCUGGAAUACAAUUAAAGCAUCAGAUUUACACUGGCACUGUGCC | 10.3 |
| UGUGGAGUCUUCUGUCUUCAUUUUGGCCCCAGCAUUCUUAAUUUCAAAGCUUUAUUCUGUCUGCCUAAGAGAAUCAACCAAAGGUGAUUCUCCUAAAGAGCAGUGAAGGA | 0.308 |
| CUCUCUCUCAUCCAGGGUCCCUGCCUGACCCACCAGUUGCUCGUGAGCUGCACAGUUCAGAUGAGACUGGACCCUCCCUUACUUACUCCUGAGCCCUGCUCUCCUCUCCU | 0.656 |
| UGAUUGACCUUUGCAUACCCUGGAAAGCCAGGGUGUGAGUGGGGUGGUUGGGAGUGGUGCCAGUUGAACAGCAGAUUCUGCUUCUUGUCACUGUUUCAAAAGCGUCAACU | 0.196 |
| CAAUGUCUAGCCAAGAGUUUAGUUAAUGAAGAAUUAAACUGCACUGUUGAUCGGUGCUUUCUGUAAAUACAUCUUAUCGCUUGGGUUGAGAGGGGCCUUAAGAAGGACAG | 0.4 |
| ACCGCCUCCGGAUGGAGCAGAGCCUCACGGACAUUCCUGAGGAGCCCAGGAAAGGGCCAGCUUGGCGGGAAGGGGCUCUCCCUAGGGGUGCAGCUGGGAGGAGGUCCGAG | 1.13 |
| CUAGCAUCUGGAGACCGAAUAUCCCCAUGCUCAGAAGUAAAGUGACAAUCAGAACCAGGUACAAGCCAGUAAAGCGGCAGAUGACUGCCACUCAGCCCACAUACGGCAUU | 0.302 |
| AGUGAAAGUUGUUUCAACAUUUUAAACAAACAGUGGUUAUAGACUCUUUCUUUAACCAUUGUAUAUUUUCUUCCAUUCUUGUCAUUGGUCAAUAGGGGAGGGUAGAUUAG | 0.611 |
| GACAACGCAGACACGCUCUACGGAGGCCUGCUGAUAAAGGGCUCAGCCUUGCCGUGUGCUGCUUCUCAUCACUGCACACAAGUGCCAUGCUUUGCCACCACCACCAAGCA | 0.469 |

Block 3 — target: CCNA1, cyclin fold, Cln2 fusion (human); method: yeast growth competition, sequencing; medium: yeast; setting: weak parent motif; relative to: not given; direction: higher = stronger binding
Starting sequence: E2F2 docking peptide (human); LPAKRKLDLEGIG; partner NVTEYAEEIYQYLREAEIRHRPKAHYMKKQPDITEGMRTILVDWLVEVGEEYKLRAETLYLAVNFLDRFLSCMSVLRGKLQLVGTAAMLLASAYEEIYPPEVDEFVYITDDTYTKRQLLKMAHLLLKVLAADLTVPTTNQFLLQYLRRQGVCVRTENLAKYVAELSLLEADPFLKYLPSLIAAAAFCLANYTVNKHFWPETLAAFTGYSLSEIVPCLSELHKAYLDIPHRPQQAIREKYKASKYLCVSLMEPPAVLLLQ
| Substitution | normalised enrichment score |
| --- | --- |
| LAAKRKLDLEGIG [P2A] | 0.21 |
| APAKRKLDLEGIG [L1A] | 0.335 |
| LPAKAKLDLEGIG [R5A] | 0.394 |
| LPAKRALDLEGIG [K6A] | 0.222 |
| LPAARKLDLEGIG [K4A] | 0.728 |
| LPAKRKLDFEGIG [L9F] | 1.62 |
| LPAKRKLDLAGIG [E10A] | 0.329 |

Block 4 — method: aptamer microarray, sandwich; molecule type: DNA with 2'F-ANA; medium: in vitro; tested at: 200 nM; with: Cy3 exosite-II aptamer, 400 nM; direction: higher = stronger binding; sequence: GGTTGGTGTGGTTGG
Target: Prothrombin, mature alpha-thrombin (F2, Homo sapiens, UniProt P00734)
Setting: whole 15-mer aptamer, many near background
| Modification | mean fluorescence intensity |
| --- | --- |
| 2'F-ANA at 1 2 3 6 7 8 9 12 13 15 | 331 a.u. |
| 2'F-ANA at 1 4 7 8 9 10 11 13 15 | 50.9 a.u. |
| 2'F-ANA at 1 2 4 5 6 7 8 11 14 15 | 48 a.u. |
| 2'F-ANA at 1 2 4 5 6 11 12 15 | 80.8 a.u. |
| 2'F-ANA at 1 3 13 15 | 305 a.u. |
| 2'F-ANA at 3 4 6 7 8 12 14 | 416 a.u. |
| 2'F-ANA at 1 2 3 5 7 8 11 13 15 | 54.4 a.u. |
| 2'F-ANA at 3 4 5 6 7 9 11 14 | 49.2 a.u. |
| 2'F-ANA at 1 2 5 10 13 | 44.6 a.u. |
| 2'F-ANA at 2 3 5 7 12 13 | 165 a.u. |
| 2'F-ANA at 3 8 11 13 | 951 a.u. |
| 2'F-ANA at 2 3 4 5 6 8 10 12 13 | 53.1 a.u. |
| 2'F-ANA at 1 2 3 5 6 12 14 | 45.9 a.u. |
| 2'F-ANA at 1 2 4 5 6 8 14 15 | 51.5 a.u. |
| 2'F-ANA at 3 4 6 7 8 9 11 13 14 | 222 a.u. |
| 2'F-ANA at 4 6 8 9 10 13 15 | 82.5 a.u. |
| 2'F-ANA at 3 4 5 7 8 14 | 115 a.u. |
| 2'F-ANA at 1 2 3 4 6 7 8 9 10 12 | 69.6 a.u. |
| 2'F-ANA at 3 5 7 9 10 11 | 63.5 a.u. |
| 2'F-ANA at 1 2 3 4 5 7 8 9 12 14 | 58.9 a.u. |
| 2'F-ANA at 1 3 6 7 8 9 10 11 12 15 | 95.1 a.u. |
| 2'F-ANA at 3 7 10 15 | 676 a.u. |
| 2'F-ANA at 1 2 7 9 10 11 12 13 14 | 50.7 a.u. |
| 2'F-ANA at 1 2 3 4 6 8 9 12 | 365 a.u. |
| 2'F-ANA at 1 4 5 6 8 9 11 12 15 | 79.8 a.u. |

Some of these lines once more (block 1):
| Sequence | log2 enrichment |
| --- | --- |
| CCUCAAGUCCUGUGCUACACAUCGUAUGUACCGAAUCGGGUGGGUGGGUGGGAAAGUAUUAUGUUACGCCGUUCGGAUCUGCACUUCCAG | 1.27 |
| UUGCGGCAGCCGCCCCCUUCUGCGCGGUCACGCCGAGCCAGCGCCUGGGCCUGGAACCGGGCCGUAGCCCCCCCAGUUUCGCCCACCACC | 0.396 |
| UCCCCCCUAUUGGAAGUAAAGGGGAACAUAGAACUGAAGAGACCUCUGAUUAAGGCCCCUUCCCAGCUGCCUCUCUCAGGAAGCAGACUC | -0.454 |
| CUCAAGUCCUGUGCUACACAUCGUAUGUACCGAAUCGGGAGGGGAGGGGAGGGAAAGUAUUAUGUUACGCCGUUCGGAUCUGCACUUCCA | 1.47 |
| CCUGUGCUACACAUCGUAUGUACCGAAUCGGGAAAAAAGGGAAAAAAGGGGAAAAAAGGGGAAAGUAUUAUGUUACGCCGUUCGGAUCUG | -0.367 |
| UAACUUUAGAGGAGGAUCUGAUGGAUAUGGCAGUGGACGUGGAUUUGGGGAUGGCUAUAAUGGGUAUGAAGGAGGACCUGGAGGUGGCAA | 0.173 |
| AAGUCCUGUGCUACACAUCGUAUGUACCGAAUCGGGUUUUGGUUUUGGGGUUUUGGGAAAGUAUUAUGUUACGCCGUUCGGAUCUGCACU | -0.626 |
| CUGUGCUACACAUCGUAUGUACCGAAUCGGGGUUUUUGGGGUUUUUUUGGGGAAAAAGGGGAAAGUAUUAUGUUACGCCGUUCGGAUCUG | -0.313 |
| GUCCUGUGCUACACAUCGUAUGUACCGAAUCGGGGUGGGGAAAAAAAGGGGAAAGGGGAAAGUAUUAUGUUACGCCGUUCGGAUCUGCAC | 0.539 |
